# Results from different studies.
# Protocols differ between the studies behind these lines. ± gives the spread as reported.
Molecule,tested on,assay,system,setting,how to read,endpoint,result
"UGT1A9 (Homo sapiens, UniProt O60656)",CCOC(=O)c1ccc(O)cc1,steady-state kinetics,,"pH 7.4, 37 °C",,Vmax,0.00305 µmol/min/mg
Insulin human,,,"rat, thalamus/hypothalamus","intranasal, 20 µg per nostril, 360 min",,brain concentration,32.2 ± 13.4 pg/mg tissue
Cc1cc(-c2ccc(NC(=O)[C@H](CCCCNC(=O)CCN3C(=O)CC(SCC(=O)N[C@H](Cc4ccccc4)C(=O)N[C@H]4CSSC[C@@H](C(=O)N[C@H](C(=O)O)[C@@H](C)O)NC(=O)[C@H]([C@@H](C)O)NC(=O)[C@H](CCCCN)NC(=O)[C@@H](Cc5c[nH]c6ccccc56)NC(=O)[C@H](Cc5ccc(O)cc5)NC4=O)C3=O)NC(=O)CN3CCN(CC(=O)O)CCN(CC(=O)O)CCN(CC(=O)O)CC3)c(C)c2)ccc1N=Nc1ccc2c(S(=O)(=O)O)cc(S(=O)(=O)O)c(N)c2c1O (some centres unmarked) [yttrium-86 labelled],,PET,"female athymic nude mice, AR-42J xenograft, AR-42J tumour","intravenous, 0.92 MBq, 4 nmol, 48 h",,tumour uptake,65.8 ± 7.59 %ID/g
insulin degludec,,,"human, end-stage renal disease",,relative to: before over after dialysis,CL/F ratio,1.23
teriparatide,,ELISA,healthy women,"sc, 20 µg single dose, reference product, arithmetic mean",,CL/F,207 ± 83.2 L/h
insulin aspart,,LC-MS/MS,"healthy humans, plasma","subcutaneous, 0.2 IU/kg, 0 to 8 h, after propensity score matching",,AUC,0.571 ± 0.085 µg·h/mL
CC(C)[C@H](NC(=O)[C@@H]1CCCN1C(=O)[C@H](CCCNC(=N)N)NC(=O)[C@H](CS)NC(=O)[C@H](Cc1c[nH]c2ccccc12)NC(=O)[C@H](CCCNC(=N)N)NC(=O)[C@@H](Cc1ccccc1)NC(=O)[C@H](Cc1c[nH]cn1)NC(=O)[C@H](CCC(=O)O)NC(=O)[C@H](CS)NC(=O)[C@H](CS)NC(=O)[C@H](CCCCN)NC(=O)[C@@H]1CC(=O)N[C@@H](CCCNC(=N)N)C(=O)N[C@@H](C)C(=O)N[C@@H](CC(=O)O)C(=O)N[C@H](Cc2ccc(O)cc2)C(=O)N1)C(N)=O [technetium-99m labelled],,,"C57 mice, pancreas","intravenous, 0.037 MBq, 24 h",,tissue uptake,0.02 ± 0.07 %ID/g
CSCC[C@H](NC(=O)[C@H](CC(C)C)NC(=O)[C@H](Cc1c[nH]cn1)NC(=O)CNC(=O)[C@@H](NC(=O)[C@H](C)NC(=O)[C@H](Cc1c[nH]c2ccccc12)NC(=O)[C@H](CCC(N)=O)NC(=O)CCCCCNC(=O)[C@H](CCC(=O)NCCCC[C@@H]1NC(=O)[C@@H](Cc2ccc(O)cc2)NC(=O)[C@H](CC(=O)O)NC(=O)CNC(=O)[C@H](CCCNC(=N)N)NC1=O)NC(=O)CN1CCN(CC(=O)O)CCN(CC(=O)O)CC1)C(C)C)C(N)=O [copper-64 labelled],,,"ICR SCID mouse, female, stomach","intravenous, 750 kBq, 4 h",,tissue uptake,0.96 ± 0.39 %ID/g
N=C(N)NCCC[C@@H]1NC(=O)[C@H](CSC2CC(=O)N(CCNC(=O)CN3CCN(CC(=O)O)CCN(CC(=O)O)CCN(CC(=O)O)CC3)C2=O)NC(=O)[C@H](CCCCN)NC(=O)[C@@H](Cc2ccc(O)cc2)NC(=O)[C@H](CC(=O)O)NC(=O)CNC1=O (some centres unmarked) [gallium-68 labelled],,,"ICR mouse, female, blood","intravenous, 5 MBq, 1 to 120 min, two-compartment model",,elimination rate constant,0.02 ± 0.01 min⁻¹
pegcetacoplan,,population PK model,"human, GA or nAMD, serum",intravitreal,,absorption rate constant,-2.94 log(1/day)
"PRL (Homo sapiens, UniProt P01236)",,"NMR, measured: His30",,"35 °C, 25 mM NaCl, microscopic; neighbours unprotonated, numbering of the source",,pKa,6
COc1cccc2c1C(=O)c1c(O)c3c(c(O)c1C2=O)C[C@@](O)(C(=O)CO)C[C@@H]3O[C@H]1C[C@H](NC(=O)[C@@H]2CCCN2C(=O)CN)[C@H](O)[C@H](C)O1,,,"mouse, E0771 tumour-bearing, plasma","intravenous, 92 µmol/kg PhAc-ALGP-Dox",,Tmax,5 min
insulin aspart,,"ELISA, measured: plasma insulin","human, plasma","subcutaneous, 0.2 U/kg",relative to: baseline,ΔCmax,81 ± 8 µU/mL
insulin aspart,,,"human, healthy","subcutaneous, 0.2 U/kg, 12 h",relative to: reference insulin aspart (EU),AUC ratio,99.7%
ACEEQNPWARYLEWLFPTETLLLEL,,ex vivo fluorescence,"peptide, BALB/c mouse, 4T1 mammary tumour, tumour vs muscle",2 h,relative to: tumour over muscle,contrast index,3
COc1cccc2c1C(=O)c1c(O)c3c(c(O)c1C2=O)C[C@@](O)(C(=O)CO)C[C@@H]3O[C@H]1C[C@H](NC(=O)[C@@H]2CCCN2C(=O)CNC(=O)[C@@H](N)CC(C)C)[C@H](O)[C@H](C)O1,,,"mouse, E0771 tumour-bearing, plasma","intravenous, 92 µmol/kg PhAc-ALGP-Dox",,Tmax,5 min
insulin aspart,,,obese type 2 diabetes patients,"subcutaneous, 0.2 U/kg, glucose below 70 mg/dL",,subjects with hypoglycaemia,43.2%

# A few entries again:
Molecule,tested on,assay,system,setting,how to read,endpoint,result
insulin degludec,,,"human, end-stage renal disease",,relative to: before over after dialysis,CL/F ratio,1.23
